Measured values gathered from unrelated publications.
Numbered parts are unrelated; each lists some results of a single study. Positions count from the first letter of the parent shown.

Block 1
Target: Interferon regulatory factor 3, full length, phosphomimetic (IRF3, Homo sapiens, UniProt Q14653, residues 1-427, S386D/S396D/S398D/S402D/T404D/S405D)
Method: protein-binding microarray
Molecule type: double-stranded DNA, one strand shown
Sample: in vitro
Tested at: 2540 nM top
Setting: 60-bp whole probe
Added: salmon DNA 0.4 mg/ml
Relative to: random background probes
Direction: higher = stronger binding
Endpoint: fitted relative affinity
All sequences stand within: GCCTAGCAC … GTCTTGATTCGCTTGACGCTGCTG
Construct (chain): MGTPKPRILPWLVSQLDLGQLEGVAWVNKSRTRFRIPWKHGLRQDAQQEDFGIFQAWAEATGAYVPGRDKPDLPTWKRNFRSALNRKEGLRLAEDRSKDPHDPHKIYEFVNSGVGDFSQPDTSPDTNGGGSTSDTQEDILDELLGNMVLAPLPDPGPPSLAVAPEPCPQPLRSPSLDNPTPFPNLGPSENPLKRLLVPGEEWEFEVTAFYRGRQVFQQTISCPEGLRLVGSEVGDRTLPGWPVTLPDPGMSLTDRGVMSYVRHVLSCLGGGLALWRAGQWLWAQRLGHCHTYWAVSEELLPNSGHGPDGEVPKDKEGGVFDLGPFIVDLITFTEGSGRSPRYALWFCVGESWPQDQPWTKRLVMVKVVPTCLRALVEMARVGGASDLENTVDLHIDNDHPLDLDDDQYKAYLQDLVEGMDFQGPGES
GACGGACTCGGGACTGGGGACGTGCTA: -0.522 z-score
CATTGCCTGTTTTTCCCCTGGTGCTAG: 0.824 z-score
GGTCTTTTCGCTTTCTTTACGTGCTAG: 2.97 z-score
TCAGTTCTTAGCTTGGGACTGTGCTAG: 0.74 z-score
GACGACTTCAGTATCGAGACGTGCTAG: 0.182 z-score
TTAGAACTGAGCCTGGATTAGTGCTAG: -0.65 z-score
CTGTTTTTGCTTTCCTTCTTGTGCTAG: 6.27 z-score
TCATGTTTTTCATTATTACTGTGCTAG: 0.981 z-score
TTAAGTTCCCTTTTCCTTTAGTGCTAG: 7.09 z-score
TCCCCGGAGCTGGACAGAAGGTGCTAG: -0.617 z-score
CCCAGGGTCTGTTTGGGTCTGTGCTAG: -0.361 z-score
GACGAACTGCGGACTGGAGACGTGCTA: -0.428 z-score

Block 2
Target: CCND2, cyclin fold, Cln2 fusion (human)
Method: yeast growth competition, sequencing
Sample: yeast
Setting: weak parent motif
Relative to: not given
Direction: higher = stronger binding
Endpoint: normalised enrichment score
Starting sequence: E2F1 docking peptide (human); PPVKRRLDLETDH; partner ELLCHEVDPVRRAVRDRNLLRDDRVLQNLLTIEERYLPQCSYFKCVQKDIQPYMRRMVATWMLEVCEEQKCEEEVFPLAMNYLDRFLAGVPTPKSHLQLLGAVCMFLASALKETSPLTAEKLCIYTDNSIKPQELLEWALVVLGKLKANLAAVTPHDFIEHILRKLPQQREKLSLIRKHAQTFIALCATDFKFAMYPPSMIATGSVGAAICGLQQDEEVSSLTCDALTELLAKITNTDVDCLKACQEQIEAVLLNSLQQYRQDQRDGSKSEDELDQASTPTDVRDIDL
PPVKRRLDLETDY [H13Y]: 0.42
PPVKRCLDLETDH [R6C]: 0.0728
PPVKRQLDLETDH [R6Q]: 0.524
PPVKRRLLLETDH [D8L]: 0.493
PQVKRRLDLETDH [P2Q]: 0.237

Block 3
Target: RING finger protein unkempt homolog, zinc fingers 1-6, SBP tag (UNK, Homo sapiens, UniProt Q9C0B0, residues 30-357)
Sequence of UniProt Q9C0B0 (30-357, looked up): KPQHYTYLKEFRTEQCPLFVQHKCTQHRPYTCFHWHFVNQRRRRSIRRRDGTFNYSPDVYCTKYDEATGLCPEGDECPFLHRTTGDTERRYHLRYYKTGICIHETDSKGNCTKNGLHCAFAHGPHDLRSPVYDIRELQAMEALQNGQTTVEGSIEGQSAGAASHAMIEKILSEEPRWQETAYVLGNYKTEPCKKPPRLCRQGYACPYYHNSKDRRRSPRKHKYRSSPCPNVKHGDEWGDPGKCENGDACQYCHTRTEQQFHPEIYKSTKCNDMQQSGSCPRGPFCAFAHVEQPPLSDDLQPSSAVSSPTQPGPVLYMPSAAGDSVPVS
Method: RNA Bind-n-Seq
Molecule type: RNA
Sample: in vitro
Tested at: 100 nM
Setting: RNA with constant flanks, vertebrate orthologous sites, ends assumed
Relative to: input RNA pool
Direction: higher = stronger binding
Endpoint: bound/input enrichment
All sequences stand within: GGGAGUUCUACAGUCCGACGAUC … CAACAGAGGAUUGAGCAUCA
CUCGUUGCUCCCCUGUGAGGGAGUGGAGGGAGCCCAGGAUAACCCUCAGCUGUUCCAGUCCAGUAUUUUUUCUUUUUAAAAAAUUACUGUAUUUAUUAUGACGACGGUAGCUCCCCAAUG: 0.392 ratio
AGGAAAUGCUAGCUGCAAACCCUCAGGAUCGUCCAGAUGCUUUUGAACUAGAACUCCGAUUAGUGCAAAUUGCAUUUAAAGAUAACAGCUGGGAAACGUGACACAUACAUUAUUUGCAAA: 0.994 ratio
UGGGCGCCCUCUUUGGGGAGCUGCUGGCCGCUUAGCGUUGUUUGAUUUUUGACCUUGACAUAGUAGAUAGGCUUGUGGUUUUUUUAAUUUAAACAUAUUAAGACUUAAUUCACUAAAAUU: 0.813 ratio
CUAUAUGGCCCUCGCAGAGUUGAGAUCAUGGAAGAGGAAAGUGAAUAGUAAUGUUCAUUUUAGUAUUUAUGUUUAGGUGUGAAAUAAAUGUUAUUUGUUGAUCUUUUCUAUAAUCUAGGG: 0.746 ratio
UUGGGCUGUACCCGUGGGCGCCGCUGCCCAUGCAGCGUUGCUUGGUCUGGGACCUUGACGUAAUAGAUAGGCUUGUGGUUUUUUAAUUUAAAGAUAUUAAGACUUAAUUCACUAAACUUU: 0.372 ratio
GUGUUUUGGUACCACUCAAUGUACCAAUACUCAUCCUUUUUUCAUUAUACCAACUAUCGCUAGAAGUAGGAGUUUAAUAUUUUUAAAAAUUUUACAUUGCUGUAUAUUCAAAAUUUUAAA: 0.581 ratio
UCUCUCGCUUAACUGUGUCCGAAGUUGCUAUGAGGAUUGGAAACAUUCAUUAGUUUCAUGUAGAACUACACUGGCAGGUGCUCAAUUCCCAUCAUAGCAAGAUCAAAUACCAUCACAGUA: 0.959 ratio

Further values, each from its own experiment
PhoQ, residues 284 288 289 292 302 303 TVTVVA — fold induction (PhoP, residues 12 14 15 18 19 AQCLL (Escherichia coli, UniProt P23836); Sort-seq, measured: YFP reporter; E. coli; PhoQ-PhoP variant library, added: 10 µM Mg2+; relative to: high Mg2+ state, higher = stronger signaling): 0.869

Some of these lines once more (block 2):
PPVKRRLLLETDH [D8L]: 0.493
PPVKRCLDLETDH [R6C]: 0.0728
PPVKRQLDLETDH [R6Q]: 0.524
PPVKRRLDLETDY [H13Y]: 0.42
